# Measurements from different studies.
# Numbered parts are unrelated; each lists some results of a single study.

# Block 1
# Cell line: HEK-293T/ACE2
# Concentration: concentration not given
# Time: 16 (unit not given)
# Reference: vehicle
Structure (SMILES),viability [%]
Nc1nc2c(c(=O)[nH]1)N(C=O)C(CNc1ccc(C(=O)N[C@@H](CCC(=O)O)C(=O)O)cc1)CN2 (stereo partly shown),107
CC1=C(/C=C/C(C)=C/C=C/C(C)=C\C(=O)O)C(C)(C)CCC1,103
O=c1[nH]cnc2c1ncn2[C@H]1CC[C@@H](CO)O1,99.3

# Block 2
# Target: Replicase polyprotein 1ab, polymerase (rep, Severe acute respiratory syndrome coronavirus 2, UniProt P0DTD1)
# Effect on: enzyme activity
# Action: inhibitor
# Concentration: 20 µM
SMILES,inhibition
CCCCOc1ccc(OCCCN2CCOCC2)cc1,22.4%
CNC[C@H](O)c1ccc(O)c(O)c1,20.3%
C[C@]12C=CC(=O)C=C1CC[C@@H]1[C@@H]2[C@@H](O)C[C@@]2(C)[C@H]1CC[C@]2(O)C(=O)COP(=O)(O)O,-2.03%
C=C1/C(=C\C=C2/CCC[C@]3(C)[C@@H]([C@H](C)/C=C/[C@H](C)C(C)C)CC[C@@H]23)C[C@@H](O)C[C@@H]1O,-2.38%
CCNC(=O)/C=C/c1cccc(Br)c1,11.3%
CS(=O)(=O)OCCCCOS(C)(=O)=O,5.94%
Cc1cc(OCc2nc(-c3ccccc3Cl)cs2)ccc1OCC(=O)O,5.54%
O=C(Nc1ccc([N+](=O)[O-])cc1Cl)c1cc(Cl)ccc1O,-4.55%
NC[C@H]1O[C@H](O[C@H]2[C@H](O)[C@@H](O[C@H]3O[C@H](CO)[C@@H](O)[C@H](N)[C@H]3O)[C@H](N)C[C@@H]2N)[C@H](N)C[C@@H]1O,19.1%
CCCCC[C@H](O)/C=C/[C@@H]1[C@H]2C/C(=C/CCCC(=O)O)O[C@H]2C[C@H]1O,-0.27%
COc1ccc(-c2nc(C(=O)N3CCN(C)CC3)sc2-c2ccc(OC)cc2)cc1,4.74%
Cn1ncc(Cl)c1-c1cc(C(=O)N[C@H](CN)Cc2ccc(F)c(F)c2)oc1Cl,0.04%
CN(C)CCCSc1ccccc1NC(=O)/C=C/c1ccccc1,2.79%
O=c1[nH]ccc2cc(OC3CCNCC3)ccc12,-4.58%
O=C(CNC(=O)c1ccc(Cl)cc1)NO,-7.65%
CCC(=O)c1ccc(OCC(O)CN2CCN(c3ccccc3)CC2)cc1 (stereo not shown),2.19%
O=c1[nH]c(=O)n(C2CCCO2)cc1F (stereo not shown),-1.61%
CNC(=O)[C@H]1O[C@@H](n2cnc3c(NCc4cccc(I)c4)nc(Cl)nc32)[C@H](O)[C@@H]1O,32.7%
CC1(COc2ccc(CC3SC(=O)NC3=O)cc2)CCCCC1 (stereo not shown),-2.38%
O=C(O)/C=C/CO,-2.45%
Cc1ccc(-c2ncccn2)c(C(=O)N2C[C@H](COc3ccc(F)cn3)CC[C@H]2C)c1,-2.74%

# Block 3
# Target: Interferon regulatory factor 5, full length, phosphomimetic (IRF5, Homo sapiens, UniProt Q13568-2, residues 1-514, K96S/S451D/S453D/S456D/S462D)
# Technique: protein-binding microarray
# Form: double-stranded DNA, one strand shown
# Matrix: in vitro
# Concentration: 250 nM
# Setting: 60-bp whole probe
# Together with: salmon DNA 0.4 mg/ml
# Reference: random background probes
# Direction: higher = stronger binding
# All sequences stand within: GCCTAGCAC … GTCTTGATTCGCTTGACGCTGCTG
Sequence,log fluorescence [z-score]
GACGGTTTCCTTTCCCTCACGTGCTAG,1.78
GACTAACTGAGTATCGAGACGTGCTAG,1.93
TCACTGCTCCTTCTGACACTGTGCTAG,0.0891
TTGGGTTTCGGTATCGGTTAGTGCTAG,10.9
TCATCTTTCCACTTTCTACTGTGCTAG,2.71
TGTCTTCCCCATCTTGTTCCGTGCTAG,0.331
TTAGGTATCGAATATCGGTTAGTGCTA,5.75
TCATTTCTACGTCTGATACTGTGCTAG,1.38

# Block 4
# Target: Ras GTPase-activating protein-binding protein 1, C-terminal RGG region (G3BP1, Homo sapiens, UniProt Q13283)
# Sequence of UniProt Q13283 (whole entry, looked up): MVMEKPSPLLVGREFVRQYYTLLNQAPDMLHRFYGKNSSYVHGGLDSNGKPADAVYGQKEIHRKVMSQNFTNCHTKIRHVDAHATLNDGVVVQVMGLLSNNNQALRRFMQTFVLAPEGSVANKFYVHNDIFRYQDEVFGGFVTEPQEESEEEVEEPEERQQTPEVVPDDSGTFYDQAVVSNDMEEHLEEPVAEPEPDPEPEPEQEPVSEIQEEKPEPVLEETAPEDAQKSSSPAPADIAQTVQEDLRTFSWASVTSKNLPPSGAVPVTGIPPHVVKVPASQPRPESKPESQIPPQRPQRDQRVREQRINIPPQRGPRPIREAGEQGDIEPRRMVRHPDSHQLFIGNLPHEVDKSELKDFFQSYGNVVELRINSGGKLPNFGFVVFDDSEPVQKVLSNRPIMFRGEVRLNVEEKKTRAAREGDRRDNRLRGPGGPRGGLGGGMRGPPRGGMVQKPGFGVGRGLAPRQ
# Technique: RNA Bind-n-Seq
# Form: RNA
# Matrix: in vitro
# Concentration: 1 µM
# Setting: whole 134-nt RNA, ends assumed
# Together with: 150 mM KCl
# Reference: input library
# Direction: higher = stronger binding
Sequence,log2 enrichment
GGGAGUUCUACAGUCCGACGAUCCCUCAAGUCCUGUGCUACACAUCGUAUGUACCGAAUCGGAGGGAGGGGAGGGAAAGUAUUAUGUUACGCCGUUCGGAUCUGCACUUCCAGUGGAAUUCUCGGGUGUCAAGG,0.474
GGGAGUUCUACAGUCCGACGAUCUGGCCCUGGUGGCAUGCGGGGAGGAAGAGGUGGCCUCAUGGAUCGUGGUGGUCCCGGUGGGAUGUUCAGAGGUGGCCGUGGUGGAGACAGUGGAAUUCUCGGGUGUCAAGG,2.54
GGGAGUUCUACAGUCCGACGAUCUAACUUUGGAGGAGGAUCUGAUGGAUAUGGCAGUGGACGUGGAUUUGGGGAUGGCUAUAAUGGGUAUGGAGGAGGACCUGGAGGUGGCAAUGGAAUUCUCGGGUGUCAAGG,-1.43
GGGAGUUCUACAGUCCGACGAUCCCUGUGCUACACAUCGUAUGUACCGAAUCAAACCCCCCCAAAUUUUUAAACCCCCCCAAAAAAGUAUUAUGUUACGCCGUUCGGAUCUGCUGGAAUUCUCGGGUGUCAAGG,-1.03
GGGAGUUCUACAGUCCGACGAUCUUGCAUUUCGAACGCGUUCUAAGAUGCCCCUGAAAGAUGUUCCCCUGGGCCAAUUAGAGGCAGAGCUCCAAGCUCCAGACAUCACUCCAGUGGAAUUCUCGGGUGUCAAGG,0.0411
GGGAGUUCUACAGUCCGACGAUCCACAGACAACACGCACCCACACAGACACAGAGGCAAGGGGUUGGGAUGGGGACAGGGUGCACAGCAGGGCGGGGUAGGACCCCAGCCCCUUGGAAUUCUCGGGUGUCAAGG,-0.108
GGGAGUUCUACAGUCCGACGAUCAGUCCUGUGCUACACAUCGUAUGUACCGAAUCGGAAAGGUUUUUUUGGUUUUUUUGGAAAGUAUUAUGUUACGCCGUUCGGAUCUGCACUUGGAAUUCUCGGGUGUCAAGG,-2.5
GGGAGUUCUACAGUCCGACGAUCCUUCUUGCAUGCUCGGCUCCGGACAGCUACGCUUCGGCAUGACGCAGACGGGCAGGCCACCCUGUUGAACCUCCUGCUGCGGAAUUACCUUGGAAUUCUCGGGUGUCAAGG,-0.815

# Block 5
# Target: RING finger protein unkempt homolog, zinc fingers 1-6, GST-SBP tag (UNK, Homo sapiens, UniProt Q9C0B0, residues 30-357)
# Sequence of UniProt Q9C0B0 (30-357, looked up): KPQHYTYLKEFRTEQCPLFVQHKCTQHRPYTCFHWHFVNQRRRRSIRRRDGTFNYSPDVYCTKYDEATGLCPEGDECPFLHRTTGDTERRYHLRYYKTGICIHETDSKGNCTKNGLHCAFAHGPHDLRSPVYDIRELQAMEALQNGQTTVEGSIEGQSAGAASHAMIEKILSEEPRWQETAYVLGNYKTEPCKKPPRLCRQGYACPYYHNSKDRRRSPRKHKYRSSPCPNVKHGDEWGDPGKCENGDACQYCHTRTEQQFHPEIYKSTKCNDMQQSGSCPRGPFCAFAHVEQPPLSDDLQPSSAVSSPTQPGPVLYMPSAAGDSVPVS
# Technique: RNA Bind-n-Seq
# Form: RNA
# Matrix: in vitro
# Concentration: not given
# Setting: RNA with constant flanks, human and mouse sites, ends assumed
# Reference: input RNA pool
# Direction: higher = stronger binding
Sequence,bound/input enrichment [ratio]
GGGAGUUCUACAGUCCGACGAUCAUCUCUUUUAUUUUGGAAAAAGAGAACAACCCUCCGCUCAAGGUACCCACGAAAGAAGACCUCUUCAAGACUUGUAGUGUCCCUGGUACUCCCUCCAGCACCCCCGUGCUGUACACUCAGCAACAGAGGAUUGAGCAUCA,0.428
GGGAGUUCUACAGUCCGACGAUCCAGCACAUCAAUCCGUUGUUACCCACUUGCCUUAACAAGGAGGAGAGCAGAAGCUGUCAGUUUGUGUCCAAUUUCAUGUCUGAGUUGUCUCCAGUCAGAGCAGAGCUGCUUGGAUUCCUCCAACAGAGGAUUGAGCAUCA,0.198
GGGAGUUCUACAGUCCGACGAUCGCGGGCGGCCGGGCGCAGGGUCGCGGGAGGUGACGCGCGGCGAGGAUGGCGGCGCGGGGCCGGGGGCUGCUGCUGCUGACGCUGUCGGUGCUGUUGGCGGCGGGCCCCUCCGCCGCUGCGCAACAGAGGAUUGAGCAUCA,1.32
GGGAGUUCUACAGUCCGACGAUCUACUCGCCCACCUCUCCCAGCUACUCGCCCACCUCUCCCAGCUACUCACCCACUUCCCCUAGCUACUCGCCCACUUCCCCUAGCUACUCGCCAACGUCUCCCAGCUACUCACCGACAUCUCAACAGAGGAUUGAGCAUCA,0.801
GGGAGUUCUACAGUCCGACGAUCAAGAAAUGAUCAAAAGAUGAAAAAAGUUGCAAAAAUAUUAAGUCAAGAAAAAACAACUCUUCAGAAGAUCAAUGAUUGGAUAAAAUUAAAAAGUGACAUGUAUGAAGGCCUUCCAUUUUUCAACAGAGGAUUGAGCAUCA,0.242
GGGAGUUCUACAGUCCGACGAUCAUGAUUUUGCAGUGUGGAAGCGUUGAAAAUUGAAAGUUACUGCUUUUCCACUUGCUCAUAUAGUAAAGGGAUCCUUUCAGCUGCCAGUGUUGAAUAAUGUAUCAUCCAGAGUGAUGUUAUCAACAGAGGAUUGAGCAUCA,0.225
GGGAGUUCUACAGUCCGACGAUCCGCAGAAGGCGUGCGAUUCUUCCAGCAGAUAUGAAGAUUAUUCAGAGCUGGGAGAGCUUCCCCCACGAUCUCCUUUAGAACCAGUUUGUGAAGAUGGGCCCUUUGGCCCCCCACCAGAGGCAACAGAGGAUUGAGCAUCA,0.578
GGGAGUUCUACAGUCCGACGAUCACACGUGUGUGUAUCACCAGUGGGUCAACUGCUUGUCAUUCCUCCCGUGGCAGUUUGUGUAGACAAUCUUACUGAGCAAAAGGCAAUGAAAAGUCUUGGUUCCCACACUGCGAUAUAUUGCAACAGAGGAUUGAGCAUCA,0.117

# Further values, each from its own experiment
SMILES,target,test,conditions,endpoint,result
O=c1[nH]c(CCl)nc2sc3c(c12)CCCC3,"Replicase polyprotein 1ab, main protease (rep, Severe acute respiratory syndrome coronavirus 2, UniProt P0DTD1)","enzyme activity, inhibitor","20 µM, hit confirmation",inhibition,28.7%

# A few entries again (block 2):
SMILES,inhibition
C=C1/C(=C\C=C2/CCC[C@]3(C)[C@@H]([C@H](C)/C=C/[C@H](C)C(C)C)CC[C@@H]23)C[C@@H](O)C[C@@H]1O,-2.38%
CCNC(=O)/C=C/c1cccc(Br)c1,11.3%
CS(=O)(=O)OCCCCOS(C)(=O)=O,5.94%
Cc1cc(OCc2nc(-c3ccccc3Cl)cs2)ccc1OCC(=O)O,5.54%
O=C(Nc1ccc([N+](=O)[O-])cc1Cl)c1cc(Cl)ccc1O,-4.55%
NC[C@H]1O[C@H](O[C@H]2[C@H](O)[C@@H](O[C@H]3O[C@H](CO)[C@@H](O)[C@H](N)[C@H]3O)[C@H](N)C[C@@H]2N)[C@H](N)C[C@@H]1O,19.1%
CCCCC[C@H](O)/C=C/[C@@H]1[C@H]2C/C(=C/CCCC(=O)O)O[C@H]2C[C@H]1O,-0.27%
